Experimental data collected from several papers.
Lines come from different studies, so protocols differ. Numbers after ± are the reported error.
Cell line: MDA-MB-468

Structure (SMILES) = [C-]#[O+].[C-]#[O+].[C-]#[O+].[C-]#[O+].[C-]#[O+].[C-]#[O+].[Cl-].[Cl-].[Re+].[Re+].c1cnc(-c2ncccn2)nc1; test = cell growth or viability, MTT; conditions = 48 h; IC50 = 105 µM
Structure (SMILES) = O=C(/C=C/c1ccc2c(c1)C(=O)N(CCCc1ccccc1)CC2)NO; test = cell growth, SRB; conditions = 72 h; IC50 = 1.57 ± 0.96 µM
Structure (SMILES) = CN1CCN(c2ccc(Nc3nccc(-c4cn(C5CCCC5)nn4)n3)cc2)CC1; test = cell growth or viability, SRB; conditions = 72 h; IC50 = 7.96 µM
Structure (SMILES) = CCCCCCCCCCCCCCn1c(-c2cccnc2)nc(-c2ccc(C)cc2)c1-c1ccc(C)cc1; test = cell growth or viability, SRB; conditions = 48 h; IC50 = > 100 µM
Structure (SMILES) = O=S1(=O)CC2CCCCC2CS1 (stereo not shown); test = cell growth or viability, MTT; conditions = 72 h; IC50 = 1.01 µM
Structure (SMILES) = CCCCn1c(-c2cccnc2)nc(-c2ccc(C)cc2)c1-c1ccc(C)cc1; test = cell growth or viability, SRB; conditions = 48 h; IC50 = 49.2 µM
Structure (SMILES) = O=C(CCCCCCN1CCN(c2ccc(Nc3ncc(F)c(-c4cn(C5CCCC5)nn4)n3)cc2)CC1)NO; test = cell growth or viability, SRB; conditions = 72 h; IC50 = 1.34 µM
Structure (SMILES) = Cc1ccc(C(C)C)cc1.O=C(N=P(c1ccccc1)(c1ccccc1)c1ccccc1)c1ccccn1.[Cl-].[Cl][Ru+]; test = cell growth or viability, resazurin; IC50 = 6.98 µM
Structure (SMILES) = CN1CCN(c2ccc(Nc3ncc(F)c(-c4cn(C5CCCCC5)nn4)n3)cc2)CC1; test = cell growth or viability, SRB; conditions = 72 h; IC50 = > 10 µM
Structure (SMILES) = CCCCCC(C)n1c(-c2cccnc2)nc(-c2ccc(C)cc2)c1-c1ccc(C)cc1 (stereo not shown); test = cell growth or viability, SRB; conditions = 48 h; IC50 = 82.8 µM
Structure (SMILES) = N=C(N)NCCC[C@H](NC(=O)[C@H](Cc1c[nH]c2ccccc12)NC(=O)[C@H](CCC(N)=O)NC(=O)[C@H](Cc1c[nH]c2ccccc12)NC(=O)[C@H](CCCNC(=N)N)NC(=O)[C@H](Cc1c[nH]c2ccccc12)NC(=O)[C@H](CCC(N)=O)NC(=O)[C@H](Cc1c[nH]c2ccccc12)NC(=O)[C@@H](N)CCCNC(=N)N)C(N)=O; test = cell growth or viability, MTT; IC50 = 49 µM
Structure (SMILES) = CN1CCN(c2ccc(Nc3nccc(-c4cn(C5CCCCC5)nn4)n3)cc2)CC1; test = cell growth or viability, SRB; conditions = 72 h; IC50 = > 10 µM
Structure (SMILES) = CCCCCCCCCCn1c(-c2cccnc2)nc(-c2ccc(C)cc2)c1-c1ccc(C)cc1; test = cell growth or viability, SRB; conditions = 24 h; IC50 = > 100 µM

A few entries again:
Structure (SMILES) = [C-]#[O+].[C-]#[O+].[C-]#[O+].[C-]#[O+].[C-]#[O+].[C-]#[O+].[Cl-].[Cl-].[Re+].[Re+].c1cnc(-c2ncccn2)nc1; test = cell growth or viability, MTT; conditions = 48 h; IC50 = 105 µM
